Published values collected from several papers.
A part holds a random share of what one study measured.

Study 1 — technique: protein binding microarray; molecule type: double-stranded DNA, one strand shown; sample: in vitro; tested at: not given; baseline: not given; reading: higher = stronger binding
Target: Histone acetyltransferase KAT6A, both winged helices, GST fusion (KAT6A, Homo sapiens, UniProt Q92794, residues 1-181)
Setting: 8-mer, flanks averaged, mean of 2 arrays, mostly near background
Construct (chain): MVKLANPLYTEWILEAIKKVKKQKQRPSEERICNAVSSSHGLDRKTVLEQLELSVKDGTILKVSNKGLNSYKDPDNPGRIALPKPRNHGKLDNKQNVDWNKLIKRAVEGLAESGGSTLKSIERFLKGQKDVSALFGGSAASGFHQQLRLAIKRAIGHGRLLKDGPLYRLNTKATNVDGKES
Sequence	E-score
ATCATGGA	-0.0845
GACAACTA	-0.139
CTACGGGA	0.258
CAGAGTCG	-0.0256
GGTAAGTA	-0.00609
CTAGATCC	-0.13
ATTGAAAC	-0.0778
TCTAGGCA	-0.21
CCTTTGGA	-0.188
ATGGGGTC	-0.0695
AGATTCAC	-0.191
GTAACAGA	-0.0355
ATTAACGC	0.211
GCGATGTA	0.105
CACAAGAG	-0.113
AGCGTTCC	0.0533
ATAAGACC	-0.0272
TAACGCGA	0.155
ACAGCCAC	-0.117
GCATTTAA	-0.0438
CGGGGTTA	0.236
GTCGCCAA	-0.0256
CTGGAAAA	-0.0204
CGCATCGA	0.181
CCTCTTAC	-0.172

Study 2 — technique: RNA Bind-n-Seq; molecule type: RNA; sample: in vitro; tested at: 365 nM; baseline: no-protein control; reading: higher = stronger binding
Target: RNA binding protein fox-1 homolog 2, RRM domain, GST-SBP tag (RBFOX2, Homo sapiens, UniProt O43251-10, residues 100-194)
Setting: natural RNA segment, single round, ends assumed
All sequences stand within: GGGAGUUCUACAGUCCGACGAUC … UGGAAUUCUCGGGUGCCAA
Construct (chain): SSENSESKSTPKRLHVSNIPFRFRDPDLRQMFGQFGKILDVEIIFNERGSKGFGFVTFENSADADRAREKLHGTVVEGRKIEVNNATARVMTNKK
Sequence	RBNS enrichment (R)
CCUUAAAGCAAUAACUGACAACUCUUUGUAGUCCUCCUUGUGGGUAGUUAAGAGUGGGGUCACCCCUUUAACUCCAAGCACUACAUUUUGGCGGCUGCCGGCCUCUGGGG	0.375
CUGGCCCUCAGUGGGUAGGGCGGUGCUGCCUAGGCACACAGCAGCGCUUACGGGCCCCAGGUGCCUACUAGGCUGCCUUCCUCUUCCCCGCUGUCAGUCUGUGUCCUCCA	0.267
GCUCUAAUAUUACACAGUAAGUUCAAAGAAAGGAUGUAAGUCAAAGACUUGUUACAUAGAGGGAAAAUGGACUGGGAUAGAGGACAGACUGAUAGUUUCUUUCUUUCAUA	0.828
UGUCAGCCACCACACUGCCACCACCCUGCACACAGUCUGGGUCCCUCCGAGAGAAGCACGCCAACCUUAACAUCCCCUACAGCAUCUUGGUGCUUCACACACCAUUUAGG	9.55
UAAUGGUUGAACCAUCUUUUCAGCCCAAACAGUUUAUUUCUAAAAAGUAGAUUUAAUGCUAGGGGCCAUUAUGCAGGCUUGUAAUCCUAGAUGUUGGGAUGCCGGGGCAG	0.516
GGAUGUGGAGCUUUCUGCCAUGAUGAUUGCAUUGGCCCCUCCAAACUCUGUGUCUCCUGCCUUGUUGUUCGGUAAUAAGACUGUAGCGUAUGUAAAGGAGGGAAGGGAAG	0.966
CUUGAUUUAUCACACAAAGCAGAAUAGUAUUUUUAUAUUUAAAUGUAAAGACAAAAAACUAUAUGUAUGGUUUUGUGGAUUAUGUGUGUUUUGCUAAAGGAAAAAACCAU	0.489
ACUUCUGUACCUUUGCACAAACUCUACCCUCUGACCCUCCACUACCAUCAUACUGACACUCUUUUCCUUUAGGAAACCCUCACUGACUGACCUAGGGAGCCCUACGAAGU	0.892
UAGUUUGUGUACAUAUAUACACAUAUAUAUUUUGCACUACACAAACGAUAACAUUUUAAGGACUAAUAUUGCUGAUACUUGAAUAAUCAAUCUCUACUAGGUUAUAAGUA	0.503
GCAGAGUGGCGAUAUAUUUAUCAGAAAGAUUAUAAAGUGUGUCCAGUUUUGCCUGUCUAUAAAAGAUGAUAGUAAUUUACCAAGUGACAUUUGCAGAGAAACAGGUGUAC	0.504
GUCUGGUGAAAAAAAGAAAAACAAAUUGGAAGAGAGGACCAUGAGAAUUUUAAUAAAACAGAAGGAAACUAAUGGACCUUCCAGGAUUUAUUGUGGACGGAUGUGGAUAU	1.11
UGUAUCAGUUGAGUCAGCUUGGUGGCUCCCUGUGGAGCCAGGGCUGAGCCUUGUCACGCGCACUCGCCAAUUAAGAGAUGGACCAGCCAGCAGUCAAGUGCAUUCUCCAG	0.266

Study 3 — technique: protein-binding microarray; molecule type: double-stranded DNA, one strand shown; sample: in vitro; tested at: 2200 nM top; setting: 60-bp whole probe; added: salmon DNA 0.4 mg/ml; baseline: random background probes; reading: higher = stronger binding; all sequences stand within: GCCTAGCAC … GTCTTGATTCGCTTGACGCTGCTG
Target: Interferon regulatory factor 7, full length, phosphomimetic (IRF7, Homo sapiens, UniProt Q92985, residues 1-503, S471D/S472D/S475D/S476D/S477D/S483D/S484D/S487D)
Chain of UniProt Q92985 (whole entry, unmodified, looked up): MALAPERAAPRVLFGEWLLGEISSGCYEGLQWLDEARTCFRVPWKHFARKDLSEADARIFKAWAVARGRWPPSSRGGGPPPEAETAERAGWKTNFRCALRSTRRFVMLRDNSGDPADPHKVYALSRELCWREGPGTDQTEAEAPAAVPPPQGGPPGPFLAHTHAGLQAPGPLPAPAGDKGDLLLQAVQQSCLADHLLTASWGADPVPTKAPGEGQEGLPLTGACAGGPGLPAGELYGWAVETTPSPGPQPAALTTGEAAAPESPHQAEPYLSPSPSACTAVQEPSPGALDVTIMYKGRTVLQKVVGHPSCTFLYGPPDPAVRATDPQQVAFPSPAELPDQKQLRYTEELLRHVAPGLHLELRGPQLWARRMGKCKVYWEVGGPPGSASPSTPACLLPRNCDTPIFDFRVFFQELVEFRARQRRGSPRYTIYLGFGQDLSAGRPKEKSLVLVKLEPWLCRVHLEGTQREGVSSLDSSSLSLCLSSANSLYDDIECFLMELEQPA
Sequence	fitted relative affinity [z-score]
TTAGAACTGAGTCACGATTAGTGCTAG	-0.766
GACGATTTCGGGACTGGACACGTGCTA	1.32
TTAGGTTTCGGATTGGGTTAGTGCTAG	8.26
GCACATGAGCCAAGCCTGCCGTGCTAG	0.175
AGGAATTTCCCACTTTCACTGTGCTAG	3.12
TCACTTTTAATTTTTAAACTGTGCTAG	0.798
GACCTTTTTAAGATCTGTGCGTGCTAG	0.549
GACGAACTGAGTTTCGAGAAGTGCTAG	0.663
GACGGTCTCCTTCCCCTGACGTGCTAG	0.892
GACGATATCATTATCGAGACGTGCTAG	0.332
GACGATATCAGTTTCGAGTCGTGCTAG	6.21
TTACGTTTCCTACTGCTTTAGTGCTAG	3.99
TTAGGTTTCGGGTTTCCGTTAGTGCTA	9.18
CTTCCCCTCTCTTTCCAACTGTGCTAG	2.56
GATGGTATCGGGTTTCGGGACGTGCTA	1.71
GACGTTATCAGTCTCGAGACGTGCTAG	0.775
TTTGGTTCCCTTTTCCTTTAGTGCTAG	3.93
TTTGACATCTTCATCAACTAGTGCTAG	0.79
GACCATCTCAGTATCGAGACGTGCTAG	0.374
GACGGTATCCTCCTCCTGACGTGCTAG	1.05

Study 4 — technique: competition protein-binding microarray; molecule type: double-stranded DNA, one strand shown; sample: in vitro; tested at: 2 µM; added: Pho4 competitor, 0.05 µM; reading: higher = stronger binding; all sequences stand within: … GTCTTGATTCGCTTGACGCTGCTG
Target: Centromere-binding protein 1, full length, His-tagged (CBF1, Saccharomyces cerevisiae, UniProt P17106, residues 1-351)
Chain of UniProt P17106 (whole entry, looked up): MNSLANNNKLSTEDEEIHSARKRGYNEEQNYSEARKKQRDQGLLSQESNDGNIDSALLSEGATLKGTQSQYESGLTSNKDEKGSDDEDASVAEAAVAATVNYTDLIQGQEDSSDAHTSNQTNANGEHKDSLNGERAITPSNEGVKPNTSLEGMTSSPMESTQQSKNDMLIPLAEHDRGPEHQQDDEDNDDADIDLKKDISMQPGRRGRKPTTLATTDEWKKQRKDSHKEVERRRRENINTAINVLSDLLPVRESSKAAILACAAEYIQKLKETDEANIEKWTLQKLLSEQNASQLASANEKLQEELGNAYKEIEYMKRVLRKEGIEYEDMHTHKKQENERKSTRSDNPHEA
Setting: whole 60-bp probe, lowest competitor level
Sequence	fluorescence intensity [a.u.]
CGTCACTAGTACTATCACCTGAAAACATGCTTCCAA	101
CATTCTGTGAACCATCACGTGGACCAATTATATTAC	3090
GGCGTAGACTTGAGAAACATGACAACCACCAGGGAC	76.9
GGGGATGTTATGAACCATGTGGCTACTTTTATAAGC	142
GAGAGGACAAGGGATGACATGGCCGACGTTATAAGG	56.6
AAATTACTAAGTTGTCACCCAACTTACCCCGTATGA	70
ACTTGGTTAAAGACTCACGTGTAGTTTACGGTGGGG	1900
AAGGGCCCTTGCCTACACGTGAATATGTCTATTTTA	686
GCAAGTCAAGAGGTCTCCGTGATGGCTAGCCACCTC	55.6
AAAGCGGTAATTTGGTCAGTGGGTGCAGATATCTAT	81.7
GAAGAAAATCGCTCCCGCGTGTCCACTGGACTTTGC	78.5
TATTGGATGAGTATCCACATGGCTTGAACGCAAATG	90.3
TGTTTCTTCTGAAAGCACGTGTGAAAAGTTTTCCTG	1950
AAAGCGGTAATTTGATTCGTGGGTGCAGATATCTAT	75.7
TGAAATAGATATTAGCACGTGTCGGGGAGAGAAGAA	1870
CCAAAGCCCTCGAAACGCGTGTTCCTCTCAGCGGCA	65.9
GTTTAGTTTTCCAATCACGATACTGTTTGGCCATAC	186
ACATCAAGACAGCGTCACAGTCAGCTAAACAGAAAA	56.6
TTGCGCTTGCCGTAGCACATGACAAACGGACTATTG	380
GTCTTGTCTCATTGTCACTTAACTTTCCCCACTTCA	75.9
CTAACGAAGGTTTGCCTTGTGGGTGACAAGCCAAGT	79
GTCTTGTCTCATTGTCACCTTACTTTCCCCACTTCA	76.2
CGTCCTAGTGATTGTCACTGCACTTCCATGAGGAAG	96.9
TGATTGTCAGTCGTTCGCGTGGGTACAACTTTGGTC	76.6
TTACCTTGGCGCCATCACGTGGCAAAATGGAAGCAA	3310

Repeated from above (study 2):
Sequence	RBNS enrichment (R)
CCUUAAAGCAAUAACUGACAACUCUUUGUAGUCCUCCUUGUGGGUAGUUAAGAGUGGGGUCACCCCUUUAACUCCAAGCACUACAUUUUGGCGGCUGCCGGCCUCUGGGG	0.375
CUGGCCCUCAGUGGGUAGGGCGGUGCUGCCUAGGCACACAGCAGCGCUUACGGGCCCCAGGUGCCUACUAGGCUGCCUUCCUCUUCCCCGCUGUCAGUCUGUGUCCUCCA	0.267
GCUCUAAUAUUACACAGUAAGUUCAAAGAAAGGAUGUAAGUCAAAGACUUGUUACAUAGAGGGAAAAUGGACUGGGAUAGAGGACAGACUGAUAGUUUCUUUCUUUCAUA	0.828
UGUCAGCCACCACACUGCCACCACCCUGCACACAGUCUGGGUCCCUCCGAGAGAAGCACGCCAACCUUAACAUCCCCUACAGCAUCUUGGUGCUUCACACACCAUUUAGG	9.55
UAAUGGUUGAACCAUCUUUUCAGCCCAAACAGUUUAUUUCUAAAAAGUAGAUUUAAUGCUAGGGGCCAUUAUGCAGGCUUGUAAUCCUAGAUGUUGGGAUGCCGGGGCAG	0.516
GGAUGUGGAGCUUUCUGCCAUGAUGAUUGCAUUGGCCCCUCCAAACUCUGUGUCUCCUGCCUUGUUGUUCGGUAAUAAGACUGUAGCGUAUGUAAAGGAGGGAAGGGAAG	0.966
CUUGAUUUAUCACACAAAGCAGAAUAGUAUUUUUAUAUUUAAAUGUAAAGACAAAAAACUAUAUGUAUGGUUUUGUGGAUUAUGUGUGUUUUGCUAAAGGAAAAAACCAU	0.489
ACUUCUGUACCUUUGCACAAACUCUACCCUCUGACCCUCCACUACCAUCAUACUGACACUCUUUUCCUUUAGGAAACCCUCACUGACUGACCUAGGGAGCCCUACGAAGU	0.892
UAGUUUGUGUACAUAUAUACACAUAUAUAUUUUGCACUACACAAACGAUAACAUUUUAAGGACUAAUAUUGCUGAUACUUGAAUAAUCAAUCUCUACUAGGUUAUAAGUA	0.503
GCAGAGUGGCGAUAUAUUUAUCAGAAAGAUUAUAAAGUGUGUCCAGUUUUGCCUGUCUAUAAAAGAUGAUAGUAAUUUACCAAGUGACAUUUGCAGAGAAACAGGUGUAC	0.504
GUCUGGUGAAAAAAAGAAAAACAAAUUGGAAGAGAGGACCAUGAGAAUUUUAAUAAAACAGAAGGAAACUAAUGGACCUUCCAGGAUUUAUUGUGGACGGAUGUGGAUAU	1.11
UGUAUCAGUUGAGUCAGCUUGGUGGCUCCCUGUGGAGCCAGGGCUGAGCCUUGUCACGCGCACUCGCCAAUUAAGAGAUGGACCAGCCAGCAGUCAAGUGCAUUCUCCAG	0.266
